Experimental data collected from several papers.
Each numbered part is a random draw from the data of one study; scales do not carry over between parts.

Set 1
Target: Histone acetyltransferase KAT6A, winged helix 2, GST fusion (KAT6A, Homo sapiens, UniProt Q92794, residues 85-181)
Method: protein binding microarray
Form: double-stranded DNA, one strand shown
Sample: in vitro
Concentration: not given
Notes: 8-mer, flanks averaged, mean of 2 arrays, mostly near background
Relative to: not given
Reading: higher = stronger binding
Target sequence (chain): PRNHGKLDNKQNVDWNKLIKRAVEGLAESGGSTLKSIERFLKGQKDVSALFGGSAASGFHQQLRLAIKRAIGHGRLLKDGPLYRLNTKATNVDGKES
`CGTGCTAG` gave an E-score of -0.204.
With `CGACGACA` the E-score was -0.12.
`ACGATAGT` has an E-score of -0.125.
For `ACTGAGGC`, the E-score was 0.0717.
`AGGCGAGC` has an E-score of 0.0779.
With `CCATTCGG` the E-score was 0.195.
The E-score of `CTGCAGTC` is reported as -0.15.
With `GGTACCTA` the E-score was -0.0806.
For `CGGCAATA`, the E-score was -0.00648.
`TCAGTCGA` has an E-score of -0.066.
For `CAACCAGG`, the E-score was 0.137.
`TACGGCTA` gave an E-score of -0.179.
The E-score of `CAGCTCCC` is reported as -0.16.
`ATATACGG` gave an E-score of -0.00208.
With `CAGATGAC` the E-score was -0.172.
The E-score of `GCAAGGAA` is reported as 0.155.
`GGCATTTA` has an E-score of -0.105.
`ATTTTCAG` has an E-score of -0.00311.
`ACACGGAC` has an E-score of 0.0293.

Set 2
Target: Interferon regulatory factor 7, full length, phosphomimetic (IRF7, Homo sapiens, UniProt Q92985, residues 1-503, S471D/S472D/S475D/S476D/S477D/S483D/S484D/S487D)
Chain of UniProt Q92985 (whole entry, unmodified, looked up): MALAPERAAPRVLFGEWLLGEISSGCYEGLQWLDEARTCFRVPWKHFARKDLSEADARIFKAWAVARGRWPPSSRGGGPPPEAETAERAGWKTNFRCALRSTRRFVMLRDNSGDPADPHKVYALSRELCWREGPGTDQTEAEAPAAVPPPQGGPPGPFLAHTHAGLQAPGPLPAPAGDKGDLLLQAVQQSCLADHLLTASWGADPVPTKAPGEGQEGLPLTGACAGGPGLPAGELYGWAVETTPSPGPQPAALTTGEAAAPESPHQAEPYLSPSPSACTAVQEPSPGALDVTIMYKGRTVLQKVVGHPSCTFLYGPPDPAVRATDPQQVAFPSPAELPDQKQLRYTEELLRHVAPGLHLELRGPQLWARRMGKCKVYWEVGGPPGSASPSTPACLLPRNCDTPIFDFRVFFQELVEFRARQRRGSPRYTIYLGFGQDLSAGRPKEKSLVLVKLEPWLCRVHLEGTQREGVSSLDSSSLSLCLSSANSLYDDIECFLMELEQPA
Method: protein-binding microarray
Form: double-stranded DNA, one strand shown
Sample: in vitro
Concentration: 2200 nM top
Notes: 60-bp whole probe
Added: salmon DNA 0.4 mg/ml
Relative to: random background probes
Reading: higher = stronger binding
Shared flanks, not repeated: GCCTAGCAC … GTCTTGATTCGCTTGACGCTGCTG
For `GACGATTTCGGGACTGCAGACGTGCTA`, “fitted relative affinity” read 1.43 z-score.
For `TTAGATCTCACACTGGATTAGTGCTAG`, “fitted relative affinity” read 0.256 z-score.
`GATTTTTTCTGCTTAGAGCTGTGCTAG` — result for “fitted relative affinity”: 1.41 z-score.
For `TTAAATCTCAGTTTCGATTAGTGCTAG`, “fitted relative affinity” read 5.44 z-score.
`TTAGGTTTCGACTTCCGGTTAGTGCTA`: “fitted relative affinity” 8.38 z-score.
Under “fitted relative affinity”, `GACGATTTCAGACTGGATACGTGCTAG` is recorded as 0.41 z-score.
`CCTAGGGGCGGGGCCAAATGGTGCTAG`: “fitted relative affinity” 0.189 z-score.
Under “fitted relative affinity”, `GATGGACTGGACACTGGGGACGTGCTA` is recorded as -0.618 z-score.
Under “fitted relative affinity”, `GACGTACTGAGTTTCGAGACGTGCTAG` is recorded as 2.26 z-score.
`GACGAACTGGGGTTACGAGACGTGCTA`: “fitted relative affinity” 0.126 z-score.
Under “fitted relative affinity”, `TTAGGTTTCGACACCGGGTTAGTGCTA` is recorded as 2.18 z-score.
`CTTTTTATGCTTTCTTTAACTGTGCTA` — result for “fitted relative affinity”: 1.78 z-score.
`TGGCAGCATTCTTGGAAATCGTGCTAG`: “fitted relative affinity” -0.528 z-score.
For `TTATTTAGGATAGAACTATAGTGCTAG`, “fitted relative affinity” read -0.15 z-score.
`TTAGGTTTCGGACTCGGTTAGTGCTAG` — result for “fitted relative affinity”: 3.77 z-score.
`GACGGCCTGGGGACTGGGGACGTGCTA`: “fitted relative affinity” -1.07 z-score.
Under “fitted relative affinity”, `TCAAATTTACTTTCTACACTGTGCTAG` is recorded as 1.65 z-score.
`ACAAGTTTCTCCTTTCGGAAGTGCTAG`: “fitted relative affinity” 3.85 z-score.
For `TCAATTTCCACTTTGACACTGTGCTAG`, “fitted relative affinity” read 3.46 z-score.

Set 3
Target: TAR DNA-binding protein 43, full length, His tag (TARDBP, Homo sapiens, UniProt Q13148, residues 1-414)
Method: RNA Bind-n-Seq
Form: RNA
Sample: in vitro
Concentration: 20 nM
Notes: 6-mer, flanks averaged, single round
Added: 150 mM LiCl
Relative to: input library
Reading: higher = stronger binding
`UACACA`: “6-mer enrichment (R)” 0.856.
`CCCCCG`: “6-mer enrichment (R)” 1.27.
`UAUCGU` — result for “6-mer enrichment (R)”: 0.957.
For `GACGAC`, “6-mer enrichment (R)” read 0.834.
`GGCCCA`: “6-mer enrichment (R)” 1.02.
`CCGCGG` — result for “6-mer enrichment (R)”: 0.967.
For `AUACAU`, “6-mer enrichment (R)” read 0.859.
`GGUCUA` — result for “6-mer enrichment (R)”: 0.875.
`AACGCU` — result for “6-mer enrichment (R)”: 0.797.
`CGAUGU`: “6-mer enrichment (R)” 0.981.
Under “6-mer enrichment (R)”, `ACCACU` is recorded as 0.905.
`UGGGCU`: “6-mer enrichment (R)” 1.04.
`GAUUCU` — result for “6-mer enrichment (R)”: 0.848.
For `GGCUAG`, “6-mer enrichment (R)” read 1.03.
For `CGAAAA`, “6-mer enrichment (R)” read 0.776.
For `UUACGG`, “6-mer enrichment (R)” read 0.93.
Under “6-mer enrichment (R)”, `GAGAGG` is recorded as 1.22.

Set 4
Target: Centromere-binding protein 1, full length, N-terminal tag (CBF1, Saccharomyces cerevisiae, UniProt P17106, residues 1-351)
Chain of UniProt P17106 (whole entry, looked up): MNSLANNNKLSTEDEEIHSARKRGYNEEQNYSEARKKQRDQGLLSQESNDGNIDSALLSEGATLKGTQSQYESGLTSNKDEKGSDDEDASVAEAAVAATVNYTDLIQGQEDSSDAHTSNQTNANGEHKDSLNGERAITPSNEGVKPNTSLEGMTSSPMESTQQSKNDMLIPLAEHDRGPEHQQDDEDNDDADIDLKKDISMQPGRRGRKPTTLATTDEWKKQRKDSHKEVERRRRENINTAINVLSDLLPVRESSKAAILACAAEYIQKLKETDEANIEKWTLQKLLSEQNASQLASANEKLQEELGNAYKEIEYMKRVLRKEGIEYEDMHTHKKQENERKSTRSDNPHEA
Method: protein-binding microarray
Form: double-stranded DNA, one strand shown
Sample: in vitro
Concentration: 0.8 µM
Notes: whole 60-bp probe, no competitor
Reading: higher = stronger binding
Shared flanks, not repeated: … GTCTTGATTCGCTTGACGCTGCTG
`CTAAGTTGTAAGTAACACGTTCCCTGAGAAACCTTC` gave a fluorescence intensity of 548 a.u.
With `GAATCGCTTCCACGTCATGCCCACGTTTCGTTTTAG` the fluorescence intensity was 755 a.u.
The fluorescence intensity of `GAACAGTCTAGTGCACGTGAGATTACACTGCAATAG` is reported as 4330 a.u.
With `CTAGGGCCGTCCACTCATGTGATTTTCAACAAATTC` the fluorescence intensity was 1040 a.u.
The fluorescence intensity of `CTAAGCTAGATTCATCATCACTACTTGAAGGGGTTC` is reported as 516 a.u.
The fluorescence intensity of `GAAAGCAACAATACTAACGTGGAACTTATTTCGTAG` is reported as 516 a.u.
`GAAGGGGTGAATTGTGGTCACGTGCTTCTATAATAG` gave a fluorescence intensity of 33800 a.u.
`TGTACGAAGCTATATCATGTGACTATAGTAGTTAGG` gave a fluorescence intensity of 5160 a.u.
For `GAACTGCTTTTGTGTCACGATCATCATCACTATTAG`, the fluorescence intensity was 812 a.u.
The fluorescence intensity of `CTACCTGTTTGGCCGCACATGAGAGTTAAACGCTTC` is reported as 618 a.u.
The fluorescence intensity of `GAAAGGTTTATATTCGACGTGATTTTTTTTTCTTAG` is reported as 611 a.u.
For `GAATGAAAATAACGGCACGTTCCATGCTTCAAATAG`, the fluorescence intensity was 656 a.u.
The fluorescence intensity of `GAAGTAAGCGTGGACGGTGTGATTTTATTAGTTTAG` is reported as 537 a.u.
`CTATTGTTCAGCCTTCACGTTCCTTAGCTACACTTC` has a fluorescence intensity of 551 a.u.
With `CTAAGAATGGCAATGCTCGTGCTGAAGGTGAAATTC` the fluorescence intensity was 567 a.u.
`CCTAACTACTATATGCATGTGCCATAGCTTCGTACA` gave a fluorescence intensity of 784 a.u.
For `CTAGTGATAACCTAAAATAGTCACAAACCAATGTTC`, the fluorescence intensity was 585 a.u.
With `GAAATATGTTCCGCTGATGTGATGTGCAAGATATAG` the fluorescence intensity was 619 a.u.

Set 5
Target: Ras GTPase-activating protein-binding protein 1, C-terminal RGG region (G3BP1, Homo sapiens, UniProt Q13283)
Chain of UniProt Q13283 (whole entry, looked up): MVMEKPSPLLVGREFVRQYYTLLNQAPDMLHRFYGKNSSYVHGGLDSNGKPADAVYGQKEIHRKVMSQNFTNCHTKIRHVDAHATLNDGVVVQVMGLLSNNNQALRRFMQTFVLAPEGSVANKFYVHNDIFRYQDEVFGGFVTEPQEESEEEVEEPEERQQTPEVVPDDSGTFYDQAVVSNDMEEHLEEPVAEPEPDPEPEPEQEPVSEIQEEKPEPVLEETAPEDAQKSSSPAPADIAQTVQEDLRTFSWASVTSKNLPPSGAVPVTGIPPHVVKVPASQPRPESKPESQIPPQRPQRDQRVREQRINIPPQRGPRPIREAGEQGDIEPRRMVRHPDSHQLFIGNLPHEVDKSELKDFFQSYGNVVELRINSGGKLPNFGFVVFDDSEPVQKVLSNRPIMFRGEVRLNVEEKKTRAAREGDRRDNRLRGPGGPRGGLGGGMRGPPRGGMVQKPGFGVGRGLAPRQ
Method: RNA Bind-n-Seq
Form: RNA
Sample: in vitro
Concentration: 1 µM
Notes: whole 134-nt RNA, ends assumed
Added: 150 mM KCl
Relative to: input library
Reading: higher = stronger binding
Shared flanks, not repeated: GGGAGUUCUACAGUCCGACGAUC … UGGAAUUCUCGGGUGUCAAGG
The log2 enrichment of `CAAGUCCUGUGCUACACAUCGUAUGUACCGAAUCGGGGCCCGGCCCGGCCCGGGGAAAGUAUUAUGUUACGCCGUUCGGAUCUGCACUUC` is reported as -2.11.
With `ACCAUGCAGGUGGGCAUCUUUGCGAAGUGGGGCAAGGGGGGGAUAGGGAGGGGGGUAACACUUUGGGAACAGGUGGUCCCAGGUCGUUUC` the log2 enrichment was -0.932.
For `GUCCUGUGCUACACAUCGUAUGUACCGAAUCGGGAAAAAGGAAAAAGGGGAAAAAGGGGAAAGUAUUAUGUUACGCCGUUCGGAUCUGCA`, the log2 enrichment was -0.963.
With `UAACUUUAGAGGAGGAUCUGAUGGAUAUGGCAGUGGACGUGGAUUUGGGGAUGGCUAUAAUGGGUAUGGAGGAGGACCUGGAGGUGGCAU` the log2 enrichment was -0.746.
For `UGCUAGGCAAUGGAUCACUUGGAGUCCUUUAUUGCUGAAUGUGAUCGGAGAACUGAGCUCGCCAAGAAGCGGCUGGCAGAAACACAGGAG`, the log2 enrichment was 0.33.
With `CAACUUUAGAGGAGGAUCUGAUGGAUAUGGCAGUGGACGUGGAUUUGGGGAUGGCUAUAAUGGGUAUGGAGGAGGACCUGGAGGUGGCAA` the log2 enrichment was -1.25.
`UCCUGUGCUACACAUCGUAUGUACCGAAUCAAAUUUUUUUAAAUUUUUAAAUUUUUAAAAAAGUAUUAUGUUACGCCGUUCGGAUCUGCA` gave a log2 enrichment of -1.37.
With `CUGUGCUACACAUCGUAUGUACCGAAUCGGGCCCCCCCGGGGCCCCCCCGGCCCCCCCGGGGAAAGUAUUAUGUUACGCCGUUCGGAUCU` the log2 enrichment was -2.27.
With `UCCAAACCCAAGAAAAAGAAAUCUUUUUCCAAGGAGGAGUUGAUGAGUAGCGAUCUUGAAGAGACCGCUGGCAGCACCAGUAUUCCCAAG` the log2 enrichment was -0.969.

For quick reference, copied from above (set 4):
The fluorescence intensity of `GAAAGGTTTATATTCGACGTGATTTTTTTTTCTTAG` is reported as 611 a.u.
For `GAATGAAAATAACGGCACGTTCCATGCTTCAAATAG`, the fluorescence intensity was 656 a.u.
The fluorescence intensity of `GAAGTAAGCGTGGACGGTGTGATTTTATTAGTTTAG` is reported as 537 a.u.
`CTATTGTTCAGCCTTCACGTTCCTTAGCTACACTTC` has a fluorescence intensity of 551 a.u.
With `CTAAGAATGGCAATGCTCGTGCTGAAGGTGAAATTC` the fluorescence intensity was 567 a.u.
`CCTAACTACTATATGCATGTGCCATAGCTTCGTACA` gave a fluorescence intensity of 784 a.u.
